Measurements collected from several papers.
Numbered parts are unrelated; each lists some results of a single study. Changes are numbered by the printed parent chain.
Sequence of UniProt O00329 (whole entry, looked up): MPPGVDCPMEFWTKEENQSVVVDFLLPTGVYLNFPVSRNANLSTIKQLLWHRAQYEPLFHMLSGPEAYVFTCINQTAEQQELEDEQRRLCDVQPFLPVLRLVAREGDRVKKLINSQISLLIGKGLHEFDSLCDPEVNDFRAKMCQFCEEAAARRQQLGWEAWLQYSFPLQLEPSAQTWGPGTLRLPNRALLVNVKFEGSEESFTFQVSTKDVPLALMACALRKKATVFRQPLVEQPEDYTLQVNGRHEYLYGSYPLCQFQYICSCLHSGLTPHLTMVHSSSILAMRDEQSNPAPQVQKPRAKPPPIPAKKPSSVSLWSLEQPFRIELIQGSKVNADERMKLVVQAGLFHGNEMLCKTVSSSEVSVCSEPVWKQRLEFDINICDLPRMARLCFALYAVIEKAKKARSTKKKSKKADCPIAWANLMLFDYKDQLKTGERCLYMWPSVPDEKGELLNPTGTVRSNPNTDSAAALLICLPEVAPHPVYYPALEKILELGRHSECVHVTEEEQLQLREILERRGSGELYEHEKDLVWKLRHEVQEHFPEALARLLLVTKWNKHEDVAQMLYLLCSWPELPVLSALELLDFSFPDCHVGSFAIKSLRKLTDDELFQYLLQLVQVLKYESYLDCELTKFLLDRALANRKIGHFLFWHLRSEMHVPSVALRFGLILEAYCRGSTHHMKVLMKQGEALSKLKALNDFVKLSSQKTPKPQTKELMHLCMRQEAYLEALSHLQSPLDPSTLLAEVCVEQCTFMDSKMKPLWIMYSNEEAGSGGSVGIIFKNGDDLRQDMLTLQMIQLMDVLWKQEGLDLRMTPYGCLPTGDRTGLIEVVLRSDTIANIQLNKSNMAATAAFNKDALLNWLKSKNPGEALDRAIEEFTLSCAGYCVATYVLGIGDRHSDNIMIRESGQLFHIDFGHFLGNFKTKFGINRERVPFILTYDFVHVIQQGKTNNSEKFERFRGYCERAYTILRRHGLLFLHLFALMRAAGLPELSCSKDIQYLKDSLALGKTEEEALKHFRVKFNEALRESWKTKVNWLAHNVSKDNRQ
Sequence of UniProt P10721 (whole entry, unmodified, looked up): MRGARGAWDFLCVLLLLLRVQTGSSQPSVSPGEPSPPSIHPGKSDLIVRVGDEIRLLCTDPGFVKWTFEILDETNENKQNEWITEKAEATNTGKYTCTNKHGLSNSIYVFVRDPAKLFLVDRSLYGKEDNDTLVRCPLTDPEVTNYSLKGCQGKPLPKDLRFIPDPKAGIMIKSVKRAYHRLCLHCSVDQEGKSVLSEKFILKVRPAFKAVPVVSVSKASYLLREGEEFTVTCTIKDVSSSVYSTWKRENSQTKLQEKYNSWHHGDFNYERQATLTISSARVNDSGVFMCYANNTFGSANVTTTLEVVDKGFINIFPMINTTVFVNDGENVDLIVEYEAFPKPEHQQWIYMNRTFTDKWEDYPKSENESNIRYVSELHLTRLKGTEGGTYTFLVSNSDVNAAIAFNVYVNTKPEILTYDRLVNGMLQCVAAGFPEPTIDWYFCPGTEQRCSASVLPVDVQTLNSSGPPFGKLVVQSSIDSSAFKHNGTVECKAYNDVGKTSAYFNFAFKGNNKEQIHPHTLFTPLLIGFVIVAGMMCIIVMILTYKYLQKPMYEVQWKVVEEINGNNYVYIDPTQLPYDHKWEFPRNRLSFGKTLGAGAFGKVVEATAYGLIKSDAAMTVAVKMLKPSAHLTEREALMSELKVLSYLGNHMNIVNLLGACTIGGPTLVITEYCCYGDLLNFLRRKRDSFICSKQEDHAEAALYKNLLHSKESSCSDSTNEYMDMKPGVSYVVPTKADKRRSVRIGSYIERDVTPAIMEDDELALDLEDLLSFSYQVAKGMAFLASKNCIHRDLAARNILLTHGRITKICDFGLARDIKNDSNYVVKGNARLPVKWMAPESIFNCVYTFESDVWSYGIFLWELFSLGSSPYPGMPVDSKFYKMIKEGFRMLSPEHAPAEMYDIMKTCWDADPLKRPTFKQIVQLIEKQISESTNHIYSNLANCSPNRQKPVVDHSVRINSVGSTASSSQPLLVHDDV
Sequence of UniProt Q96SB4 (whole entry, looked up): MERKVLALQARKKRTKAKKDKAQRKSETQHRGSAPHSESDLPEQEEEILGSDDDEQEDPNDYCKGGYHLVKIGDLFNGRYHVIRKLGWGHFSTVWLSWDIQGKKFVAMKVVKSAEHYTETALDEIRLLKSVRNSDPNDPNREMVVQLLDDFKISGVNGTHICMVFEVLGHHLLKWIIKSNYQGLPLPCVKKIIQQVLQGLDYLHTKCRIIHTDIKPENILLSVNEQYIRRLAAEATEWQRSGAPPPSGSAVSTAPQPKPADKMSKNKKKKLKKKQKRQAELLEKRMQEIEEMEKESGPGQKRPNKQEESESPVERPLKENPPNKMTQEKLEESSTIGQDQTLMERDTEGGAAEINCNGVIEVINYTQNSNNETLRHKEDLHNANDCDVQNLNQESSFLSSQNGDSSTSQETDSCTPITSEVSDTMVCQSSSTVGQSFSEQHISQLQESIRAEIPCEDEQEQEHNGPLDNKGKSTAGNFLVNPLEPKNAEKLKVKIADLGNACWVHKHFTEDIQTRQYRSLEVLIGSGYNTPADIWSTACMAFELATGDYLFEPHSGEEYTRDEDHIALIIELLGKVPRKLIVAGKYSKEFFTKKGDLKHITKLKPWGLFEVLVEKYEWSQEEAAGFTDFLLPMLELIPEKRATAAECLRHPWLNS
Sequence of UniProt P08069 (whole entry, looked up): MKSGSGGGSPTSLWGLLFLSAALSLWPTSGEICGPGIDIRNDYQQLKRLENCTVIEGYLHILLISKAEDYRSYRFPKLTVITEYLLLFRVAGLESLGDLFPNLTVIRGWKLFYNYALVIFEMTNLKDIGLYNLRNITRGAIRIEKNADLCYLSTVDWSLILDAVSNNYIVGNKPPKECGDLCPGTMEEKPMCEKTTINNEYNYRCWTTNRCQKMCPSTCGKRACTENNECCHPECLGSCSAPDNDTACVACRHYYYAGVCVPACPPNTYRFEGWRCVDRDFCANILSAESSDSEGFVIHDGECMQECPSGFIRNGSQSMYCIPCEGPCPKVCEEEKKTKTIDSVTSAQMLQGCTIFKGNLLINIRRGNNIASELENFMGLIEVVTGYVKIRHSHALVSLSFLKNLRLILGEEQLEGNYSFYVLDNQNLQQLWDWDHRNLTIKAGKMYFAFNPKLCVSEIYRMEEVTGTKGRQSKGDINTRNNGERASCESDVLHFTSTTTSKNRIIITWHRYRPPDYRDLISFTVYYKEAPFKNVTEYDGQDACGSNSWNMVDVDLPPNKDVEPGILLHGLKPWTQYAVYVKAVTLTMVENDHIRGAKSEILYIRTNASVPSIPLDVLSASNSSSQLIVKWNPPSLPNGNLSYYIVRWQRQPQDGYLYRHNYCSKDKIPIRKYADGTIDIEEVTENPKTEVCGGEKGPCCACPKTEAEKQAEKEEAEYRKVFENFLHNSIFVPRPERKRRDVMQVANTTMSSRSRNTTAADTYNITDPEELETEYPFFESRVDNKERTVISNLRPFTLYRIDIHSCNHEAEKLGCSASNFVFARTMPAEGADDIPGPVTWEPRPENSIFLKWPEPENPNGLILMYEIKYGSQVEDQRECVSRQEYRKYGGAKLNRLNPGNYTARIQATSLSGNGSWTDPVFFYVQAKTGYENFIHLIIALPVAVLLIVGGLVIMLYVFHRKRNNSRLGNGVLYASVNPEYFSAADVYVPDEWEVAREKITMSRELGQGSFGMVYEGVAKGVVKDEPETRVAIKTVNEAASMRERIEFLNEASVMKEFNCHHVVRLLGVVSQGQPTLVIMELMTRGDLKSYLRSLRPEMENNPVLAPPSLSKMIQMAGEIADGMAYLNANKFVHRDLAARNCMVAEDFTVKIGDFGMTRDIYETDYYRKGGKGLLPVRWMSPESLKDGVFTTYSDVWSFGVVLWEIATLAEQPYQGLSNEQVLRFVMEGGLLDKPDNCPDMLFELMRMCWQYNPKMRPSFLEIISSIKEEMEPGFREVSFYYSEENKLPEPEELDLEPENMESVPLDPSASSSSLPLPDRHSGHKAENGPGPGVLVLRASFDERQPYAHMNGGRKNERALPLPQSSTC
Sequence of UniProt P54646 (whole entry, looked up): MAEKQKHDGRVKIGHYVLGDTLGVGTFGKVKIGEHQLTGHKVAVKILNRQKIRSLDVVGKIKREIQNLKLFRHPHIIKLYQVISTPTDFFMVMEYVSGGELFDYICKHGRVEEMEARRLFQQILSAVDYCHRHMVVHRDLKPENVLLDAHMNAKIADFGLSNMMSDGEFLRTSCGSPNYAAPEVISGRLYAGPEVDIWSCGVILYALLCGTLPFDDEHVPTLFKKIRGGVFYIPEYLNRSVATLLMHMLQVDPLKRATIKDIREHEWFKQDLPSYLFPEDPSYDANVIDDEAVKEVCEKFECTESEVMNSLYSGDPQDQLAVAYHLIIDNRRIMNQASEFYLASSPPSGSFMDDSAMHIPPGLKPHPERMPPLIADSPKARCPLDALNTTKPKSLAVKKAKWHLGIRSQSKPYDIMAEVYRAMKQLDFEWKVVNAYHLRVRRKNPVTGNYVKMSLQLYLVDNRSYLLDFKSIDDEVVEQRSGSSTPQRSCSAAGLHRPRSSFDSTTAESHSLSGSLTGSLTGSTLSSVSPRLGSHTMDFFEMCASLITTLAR
Sequence of UniProt P78368 (whole entry, looked up): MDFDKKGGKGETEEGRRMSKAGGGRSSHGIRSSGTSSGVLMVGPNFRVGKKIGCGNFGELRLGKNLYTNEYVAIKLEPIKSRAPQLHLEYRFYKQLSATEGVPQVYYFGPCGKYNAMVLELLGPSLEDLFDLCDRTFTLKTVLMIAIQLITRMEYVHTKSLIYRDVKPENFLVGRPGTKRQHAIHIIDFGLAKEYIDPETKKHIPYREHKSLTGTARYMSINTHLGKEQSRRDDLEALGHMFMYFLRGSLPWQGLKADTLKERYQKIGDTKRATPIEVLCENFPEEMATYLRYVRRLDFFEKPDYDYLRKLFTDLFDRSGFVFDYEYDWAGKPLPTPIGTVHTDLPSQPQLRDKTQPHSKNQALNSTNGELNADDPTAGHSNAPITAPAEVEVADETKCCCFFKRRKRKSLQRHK

Sample 1 — target: CEBPE, bZIP domain (human); method: DHFR protein complementation; matrix: yeast; relative to: wild-type JUN-FOS pair; direction: higher = stronger binding; measurement: binding fitness
Setting: single substitutions, most at no-binding floor
Parent: JUN, bZIP domain (human); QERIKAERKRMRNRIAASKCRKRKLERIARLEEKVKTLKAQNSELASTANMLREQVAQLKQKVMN; partner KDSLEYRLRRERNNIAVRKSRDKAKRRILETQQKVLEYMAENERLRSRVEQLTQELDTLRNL
K36R: -0.98 natural log
S47M: -1.14 natural log
R30A: -0.805 natural log
V56H: -1.44 natural log
A49V: -1.04 natural log
E32M: -1.29 natural log
A40S: -1.11 natural log
R53M: -1.02 natural log

Sample 2 — Structure (SMILES): O=C1NC(=O)c2c1c1c3ccccc3[nH]c1n1cncc21; effect on: enzyme activity; mode: inhibitor; tested at: 0.5 µM; relative to: control; measurement: remaining activity
Ribosomal protein S6 kinase alpha-3 (RPS6KA3, Homo sapiens, UniProt P51812): 47.4%
Serine/threonine-protein kinase PAK 6 (PAK6, Homo sapiens, UniProt Q9NQU5): 85.5%
Casein kinase I isoform epsilon (CSNK1E, Homo sapiens, UniProt P49674): 18.9%
Casein kinase I isoform delta (CSNK1D, Homo sapiens, UniProt P48730): 17.2%
Mitogen-activated protein kinase kinase kinase 20 (MAP3K20, Homo sapiens, UniProt Q9NYL2): 78.7%
Calcium/calmodulin-dependent protein kinase kinase 1 (CAMKK1, Homo sapiens, UniProt Q8N5S9): 63.5%
Insulin-like growth factor 1 receptor (IGF1R, Homo sapiens, UniProt P08069): 76.8%
SRSF protein kinase 1 (SRPK1, Homo sapiens, UniProt Q96SB4): 95.4%
Serine/threonine-protein kinase SIK2 (SIK2, Homo sapiens, UniProt Q9H0K1): 91.9%
Tyrosine-protein kinase JAK1 (JAK1, Homo sapiens, UniProt P23458): 102%
Tyrosine-protein kinase Tec (TEC, Homo sapiens, UniProt P42680): 96.7%
Serine/threonine-protein kinase Sgk2 (SGK2, Homo sapiens, UniProt Q9HBY8): 75.3%
Protein kinase C theta type (PRKCQ, Homo sapiens, UniProt Q04759): 88.9%
Vascular endothelial growth factor receptor 1 (FLT1, Homo sapiens, UniProt P17948): 58%
Muscle, skeletal receptor tyrosine-protein kinase (MUSK, Homo sapiens, UniProt O15146): 54.4%
Serine/threonine-protein kinase PAK 1 (PAK1, Homo sapiens, UniProt Q13153): 93.9%
Ephrin type-A receptor 2 (EPHA2, Homo sapiens, UniProt P29317): 102%

Sample 3 — method: RNA Bind-n-Seq; molecule type: RNA; matrix: in vitro; tested at: 20 nM; setting: 6-mer, flanks averaged, single round; with: 150 mM LiCl; relative to: input library; direction: higher = stronger binding; measurement: 6-mer enrichment (R)
Target: TAR DNA-binding protein 43, full length, His tag (TARDBP, Homo sapiens, UniProt Q13148, residues 1-414)
AUGCGC: 0.99
GUGAAG: 1.17
AUAGAU: 0.866
CGGUGA: 0.991
UUACCG: 0.893
CUAUGC: 0.892
CUCCGA: 0.852
UCGAGG: 0.957

Sample 4 — effect on: cell-free assay; method: competition with immobilised ligand; tested at: 1 µM; measurement: remaining binding
Compound: CNCc1ccccc1-c1csc([C@H](C)Nc2nc(C)nc3cc(OC)c(OC)cc23)c1
Casein kinase I isoform gamma-2 (CSNK1G2, Homo sapiens, UniProt P78368): 100%
Fibroblast growth factor receptor 4 (FGFR4, Homo sapiens, UniProt P22455): 100%
Calcium/calmodulin-dependent protein kinase type IV (CAMK4, Homo sapiens, UniProt Q16566): 99%
Serine/threonine-protein kinase DCLK3 (DCLK3, Homo sapiens, UniProt Q9C098): 100%
Macrophage-stimulating protein receptor (MST1R, Homo sapiens, UniProt Q04912): 100%
5'-AMP-activated protein kinase catalytic subunit alpha-2 (PRKAA2, Homo sapiens, UniProt P54646): 100%
Serine/threonine-protein kinase Sgk3 (SGK3, Homo sapiens, UniProt Q96BR1): 93%
Hormonally up-regulated neu tumor-associated kinase (HUNK, Homo sapiens, UniProt P57058): 100%
Dual specificity testis-specific protein kinase 1 (TESK1, Homo sapiens, UniProt Q15569): 100%
Phosphatidylinositol 4,5-bisphosphate 3-kinase catalytic subunit delta isoform (PIK3CD, Homo sapiens, UniProt O00329): 100%
Testis-specific serine/threonine-protein kinase 3 (TSSK3, Homo sapiens, UniProt Q96PN8): 100%
BDNF/NT-3 growth factors receptor (NTRK2, Homo sapiens, UniProt Q16620): 98%
NT-3 growth factor receptor (NTRK3, Homo sapiens, UniProt Q16288): 100%
Mast/stem cell growth factor receptor Kit (KIT, Homo sapiens, UniProt P10721, D816V): 100%
Myosin light chain kinase, smooth muscle (MYLK, Homo sapiens, UniProt Q15746): 94%

A few entries again (sample 4):
Serine/threonine-protein kinase Sgk3 (SGK3, Homo sapiens, UniProt Q96BR1): 93%
Phosphatidylinositol 4,5-bisphosphate 3-kinase catalytic subunit delta isoform (PIK3CD, Homo sapiens, UniProt O00329): 100%
Hormonally up-regulated neu tumor-associated kinase (HUNK, Homo sapiens, UniProt P57058): 100%
BDNF/NT-3 growth factors receptor (NTRK2, Homo sapiens, UniProt Q16620): 98%
NT-3 growth factor receptor (NTRK3, Homo sapiens, UniProt Q16288): 100%
